Experimental data from different studies.
Every numbered part comes from another study and shows a few of its results, in no order. Changes are numbered by the printed parent chain.

Set 1
Target: CCNB3, cyclin fold, Cln2 fusion (human)
Method: yeast growth competition, sequencing
Matrix: yeast
Notes: weak parent motif
Baseline: not given
Direction: higher = stronger binding
Starting sequence: PKN2 docking peptide (human); VSAVQKLDFSDTM; partner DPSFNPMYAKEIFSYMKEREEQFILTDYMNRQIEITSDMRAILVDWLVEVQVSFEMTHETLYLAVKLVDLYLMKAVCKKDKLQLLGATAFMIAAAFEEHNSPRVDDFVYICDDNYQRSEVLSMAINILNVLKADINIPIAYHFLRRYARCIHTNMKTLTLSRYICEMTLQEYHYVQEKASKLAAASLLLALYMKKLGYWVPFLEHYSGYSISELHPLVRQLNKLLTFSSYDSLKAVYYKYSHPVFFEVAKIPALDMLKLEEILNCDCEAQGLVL
| Variant | normalised enrichment score |
| --- | --- |
| VSAVQKLDFFDTM [S10F] | 0.0733 |
| VSAVQKLDFSDTK [M13K] | -0.0931 |
| VSRVQKLDFSDTM [A3R] | 0.118 |
| VSAVQHLDFSDTM [K6H] | 0.225 |
| VMAVQKLDFSDTM [S2M] | 0.264 |
| VSAVQKYDFSDTM [L7Y] | 0.0547 |

Set 2
Target: RING finger protein unkempt homolog, zinc fingers 1-6, GST-SBP tag (UNK, Homo sapiens, UniProt Q9C0B0, residues 30-357)
Chain of UniProt Q9C0B0 (30-357, looked up): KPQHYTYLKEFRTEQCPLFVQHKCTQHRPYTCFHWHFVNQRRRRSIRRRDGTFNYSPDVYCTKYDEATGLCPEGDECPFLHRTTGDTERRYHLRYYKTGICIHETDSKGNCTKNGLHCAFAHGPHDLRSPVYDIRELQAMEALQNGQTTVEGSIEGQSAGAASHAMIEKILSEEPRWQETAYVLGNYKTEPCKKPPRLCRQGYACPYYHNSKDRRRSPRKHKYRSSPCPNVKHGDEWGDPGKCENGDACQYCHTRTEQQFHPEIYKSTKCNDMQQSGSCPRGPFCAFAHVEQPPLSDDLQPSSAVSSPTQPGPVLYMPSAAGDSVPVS
Method: RNA Bind-n-Seq
Form: RNA
Matrix: in vitro
Tested at: not given
Notes: RNA with constant flanks, human-mouse chimeric sites, ends assumed
Baseline: input RNA pool
Direction: higher = stronger binding
| Oligonucleotide | bound/input enrichment [ratio] |
| --- | --- |
| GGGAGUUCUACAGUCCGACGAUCUCUUAACUUAUUCAUUUCUUAUUUUUAUAUAGCUAGAUAAAUAUUGUUAGUCUUAGACAAUAGCUCACAUUUUUUGAGAAGCAUGCCCUCCCUGUCCAUUUGUCUUAUAACAUGACCCAGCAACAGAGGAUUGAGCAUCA | 104 |
| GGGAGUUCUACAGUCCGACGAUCGUAUACGGUUAUCGAGGAAAGGACUGUAGAGCGAAUGUUUACCUUCUUCCCACAGGGGAGAUAGUUUAUUUUAUCGCAUCAGUAGUAGUCCUGUUUAAUUAUGAGGAGAGGACUCAGCGACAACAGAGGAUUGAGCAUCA | 1.54 |
| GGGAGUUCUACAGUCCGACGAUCGUCAACAGCUGCCUCAACCCCAUCCUCUACGCCUUCCUGGAUGAGAACUUCAAGGCCUGCUUCCGCAAGUUCUGCUGUGCUUCUGCCCUGCGCCGGGAGAUGCAGGUGUCUGACCGCGUGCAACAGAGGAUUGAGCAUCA | 0.324 |
| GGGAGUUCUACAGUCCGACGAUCGCUCUUGGGAAUGUAAUCAGCGCCUUGGGGGACAAGAGCAAGAGAGCCACCCAUGUCCCUUACAGAGAUUCCAAGCUGACAAGACUCUUGCAGGAUUCCCUCGGGGGUAACAGCCAAACCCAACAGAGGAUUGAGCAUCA | 0.176 |
| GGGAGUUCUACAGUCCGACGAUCUACUCAACUUUCUUUCCACAUUUUGAAUUCCAAGACAUUAUUCCUCCAGAUGACUUCCUAACGAGUGAUGAAGAAGUAGAUUUGGUUUUAUUUGGAACUAUGAGAGGACAAGUUGUUGGACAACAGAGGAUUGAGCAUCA | 0.278 |
| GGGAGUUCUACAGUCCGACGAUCUACAUCACCAAUGUUCUACAAAAUCCUGACUUGGCUCUGAGAAUGGCUGUGCGGAACAACUUAGCUGGUGCUGAAGAACUCUUUGCCCGGAAAUUUAAUGCUCUCUUCGCCCAGGGAAACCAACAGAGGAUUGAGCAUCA | 0.265 |
| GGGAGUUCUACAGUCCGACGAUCGAUCCACAGUGGUCUGAGGAGCAACUCAUUGCUGCAAAAUUCUGUUUUGCUGGACUUGUUAUAGGGCAGACUGAAGUGGACAUCAUGAGUCAUGCCACACAAGCUAUUUUUGAAAUUCUGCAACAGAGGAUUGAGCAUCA | 0.195 |
| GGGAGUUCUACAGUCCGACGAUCACUCAGAGAUCCACCUCCCAAAGUGCUGGGAGUAAAGUCUGAUAUUACACACCUAACUUCAUAGACAUAUAUUUUUUUUAAUAUGAAUCUUCCUGUUCGUCCAGGGAAGAAAGAUUUGUUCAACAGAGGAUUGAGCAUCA | 25.8 |
| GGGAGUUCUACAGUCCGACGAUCAAAGCCCAAGUAUUUUGAAAAAACUCGAACAGAUUUGACAAGGGUAGCCAGCUUGGAGUCUAGCAACUUGCCAAUGUUGCUUACCAACUGGGGGCUUUGUUUUUCUUUCUUCUUUCAAAUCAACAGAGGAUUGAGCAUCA | 0.161 |
| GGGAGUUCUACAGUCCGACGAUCCGGAGCCCUCCUCUCCCCCAGGCCCGAGAUAUAACCCACCAGUGCCUUCUGUCUGCUUGUCAGCUCUGUCAAUCACGCCUGUCCUCUCACGCCCACACCAAGUGCCCAAAGUGGGGAGGGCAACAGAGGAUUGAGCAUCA | 0.586 |
| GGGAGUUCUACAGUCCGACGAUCAGAAUCUUGGGACUGUUUUACUUAAUUGGUCAUUGAUAUCUCAACAAACAUGGAGAUGAGAUUAGAAAUCUUGACAUCAACAGGUAUUAAGCAGAAAAAACCAUGGCCACGUGUCUCCUGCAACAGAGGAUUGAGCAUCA | 0.113 |

Set 3
Target: Prothrombin, mature alpha-thrombin (F2, Homo sapiens, UniProt P00734)
Method: aptamer microarray, sandwich
Form: DNA with 2'F-ANA
Matrix: in vitro
Tested at: 200 nM
Notes: whole 15-mer aptamer, many near background
Together with: Cy3 exosite-II aptamer, 400 nM
Direction: higher = stronger binding
Oligonucleotide: GGTTGGTGTGGTTGG
| Modification | mean fluorescence intensity [a.u.] |
| --- | --- |
| 2'F-ANA at 1 4 5 8 13 | 48.5 |
| 2'F-ANA at 4 5 7 8 9 12 13 14 15 | 48.7 |
| 2'F-ANA at 2 4 5 6 12 | 161 |
| 2'F-ANA at 3 6 7 8 10 12 13 14 | 474 |
| 2'F-ANA at 1 2 4 8 10 12 13 14 15 | 64.1 |
| 2'F-ANA at 2 3 7 9 11 | 653 |
| 2'F-ANA at 2 3 11 14 15 | 370 |
| 2'F-ANA at 1 2 4 6 7 9 | 112 |
| 2'F-ANA at 2 5 10 11 13 14 15 | 46.8 |
| 2'F-ANA at 3 4 6 9 12 13 | 582 |

Single results of other studies
| Molecule | target | assay | system | conditions | scale | endpoint | result |
| --- | --- | --- | --- | --- | --- | --- | --- |
| PhoQ, residues 284 288 289 292 302 303 GTAMQF | PhoP, residues 12 14 15 18 19 SMASL (Escherichia coli, UniProt P23836) | Sort-seq, item: YFP reporter | E. coli | PhoQ-PhoP variant library, together with: 10 µM Mg2+ | baseline: high Mg2+ state, higher = stronger signaling | fold induction | 2.19 |

Repeated from above (set 3):
| Modification | mean fluorescence intensity [a.u.] |
| --- | --- |
| 2'F-ANA at 2 3 7 9 11 | 653 |
| 2'F-ANA at 2 3 11 14 15 | 370 |
| 2'F-ANA at 1 2 4 6 7 9 | 112 |
